Experimental data gathered from unrelated publications.
Each line is one published result; not all experiments were run side by side. “And” joins repeats or separate records; there may be more than shown. Numbers after ± are the reported error.
Ahsg: Alpha-2-HS-glycoprotein (Ahsg, Rattus norvegicus, UniProt P24090)
UniProt P24090, sequence (whole entry, looked up): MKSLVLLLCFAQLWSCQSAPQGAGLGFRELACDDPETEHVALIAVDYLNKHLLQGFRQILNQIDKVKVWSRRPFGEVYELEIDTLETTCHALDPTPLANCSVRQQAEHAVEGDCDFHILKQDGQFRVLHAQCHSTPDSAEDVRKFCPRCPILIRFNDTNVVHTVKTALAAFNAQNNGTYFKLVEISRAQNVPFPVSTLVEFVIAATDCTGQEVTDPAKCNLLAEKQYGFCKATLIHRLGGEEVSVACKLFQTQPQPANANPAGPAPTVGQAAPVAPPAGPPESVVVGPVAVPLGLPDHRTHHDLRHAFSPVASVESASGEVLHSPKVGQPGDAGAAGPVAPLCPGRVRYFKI
qscR: qscR (Pseudomonas aeruginosa, UniProt G3XD77)
UniProt P27361, sequence (whole entry, looked up): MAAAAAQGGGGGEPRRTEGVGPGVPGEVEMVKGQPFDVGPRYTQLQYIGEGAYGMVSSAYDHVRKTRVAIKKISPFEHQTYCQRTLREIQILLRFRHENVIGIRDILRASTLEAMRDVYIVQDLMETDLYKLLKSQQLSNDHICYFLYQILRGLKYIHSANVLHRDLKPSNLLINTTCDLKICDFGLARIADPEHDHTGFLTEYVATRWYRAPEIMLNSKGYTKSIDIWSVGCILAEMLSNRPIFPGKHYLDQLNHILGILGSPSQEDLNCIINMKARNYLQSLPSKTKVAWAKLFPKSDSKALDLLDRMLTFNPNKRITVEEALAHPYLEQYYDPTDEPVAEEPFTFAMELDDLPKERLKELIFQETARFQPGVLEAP
UniProt P45983, sequence (whole entry, looked up): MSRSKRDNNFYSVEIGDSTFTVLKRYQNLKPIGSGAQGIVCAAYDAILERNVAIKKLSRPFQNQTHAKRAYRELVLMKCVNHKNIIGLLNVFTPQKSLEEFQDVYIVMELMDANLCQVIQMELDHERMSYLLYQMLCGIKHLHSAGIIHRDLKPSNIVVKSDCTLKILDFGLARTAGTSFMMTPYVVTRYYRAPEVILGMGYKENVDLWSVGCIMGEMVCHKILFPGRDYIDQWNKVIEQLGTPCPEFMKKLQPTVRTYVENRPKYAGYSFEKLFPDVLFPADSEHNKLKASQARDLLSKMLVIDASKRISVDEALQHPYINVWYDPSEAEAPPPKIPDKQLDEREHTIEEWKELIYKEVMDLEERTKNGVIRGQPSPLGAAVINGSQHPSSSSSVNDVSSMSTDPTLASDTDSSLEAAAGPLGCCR
UniProt P49238, sequence (whole entry, looked up): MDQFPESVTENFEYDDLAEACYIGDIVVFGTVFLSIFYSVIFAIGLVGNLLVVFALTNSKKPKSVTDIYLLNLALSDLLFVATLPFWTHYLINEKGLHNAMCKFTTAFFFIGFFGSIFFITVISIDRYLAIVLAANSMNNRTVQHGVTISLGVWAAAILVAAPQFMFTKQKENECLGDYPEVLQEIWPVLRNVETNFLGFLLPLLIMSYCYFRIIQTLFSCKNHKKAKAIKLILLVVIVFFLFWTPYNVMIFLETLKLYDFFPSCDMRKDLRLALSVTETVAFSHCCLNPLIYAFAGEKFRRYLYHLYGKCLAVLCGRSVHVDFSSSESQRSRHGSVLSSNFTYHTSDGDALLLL
UniProt P22033, sequence (whole entry, looked up): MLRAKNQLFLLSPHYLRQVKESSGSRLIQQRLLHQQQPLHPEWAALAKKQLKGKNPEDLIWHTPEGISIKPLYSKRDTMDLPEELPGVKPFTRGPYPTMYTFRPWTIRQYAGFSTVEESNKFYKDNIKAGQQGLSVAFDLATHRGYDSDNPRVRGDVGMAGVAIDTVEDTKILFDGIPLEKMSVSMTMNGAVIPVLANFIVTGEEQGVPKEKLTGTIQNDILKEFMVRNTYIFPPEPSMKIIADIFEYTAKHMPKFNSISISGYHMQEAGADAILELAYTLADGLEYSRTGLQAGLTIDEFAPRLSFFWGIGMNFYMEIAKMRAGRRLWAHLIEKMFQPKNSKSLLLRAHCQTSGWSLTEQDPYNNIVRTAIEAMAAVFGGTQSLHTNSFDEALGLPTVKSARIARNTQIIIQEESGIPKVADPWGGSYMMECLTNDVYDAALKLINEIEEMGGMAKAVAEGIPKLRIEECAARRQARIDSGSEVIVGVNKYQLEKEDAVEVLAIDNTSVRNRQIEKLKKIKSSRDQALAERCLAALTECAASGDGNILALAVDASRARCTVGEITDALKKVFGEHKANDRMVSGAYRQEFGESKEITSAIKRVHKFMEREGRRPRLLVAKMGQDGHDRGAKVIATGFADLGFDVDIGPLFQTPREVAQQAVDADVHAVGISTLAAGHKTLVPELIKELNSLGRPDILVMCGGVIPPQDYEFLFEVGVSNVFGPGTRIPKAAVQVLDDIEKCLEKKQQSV
UniProt O14626, sequence (whole entry, looked up): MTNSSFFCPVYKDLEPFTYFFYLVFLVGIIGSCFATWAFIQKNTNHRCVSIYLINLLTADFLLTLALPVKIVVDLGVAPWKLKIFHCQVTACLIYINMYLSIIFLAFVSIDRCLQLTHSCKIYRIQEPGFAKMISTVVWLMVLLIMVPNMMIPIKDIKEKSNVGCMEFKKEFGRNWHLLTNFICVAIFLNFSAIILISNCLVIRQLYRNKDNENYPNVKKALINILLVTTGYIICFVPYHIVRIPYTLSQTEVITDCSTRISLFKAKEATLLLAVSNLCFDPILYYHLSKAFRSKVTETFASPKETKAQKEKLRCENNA
UniProt Q9HB89, sequence (whole entry, looked up): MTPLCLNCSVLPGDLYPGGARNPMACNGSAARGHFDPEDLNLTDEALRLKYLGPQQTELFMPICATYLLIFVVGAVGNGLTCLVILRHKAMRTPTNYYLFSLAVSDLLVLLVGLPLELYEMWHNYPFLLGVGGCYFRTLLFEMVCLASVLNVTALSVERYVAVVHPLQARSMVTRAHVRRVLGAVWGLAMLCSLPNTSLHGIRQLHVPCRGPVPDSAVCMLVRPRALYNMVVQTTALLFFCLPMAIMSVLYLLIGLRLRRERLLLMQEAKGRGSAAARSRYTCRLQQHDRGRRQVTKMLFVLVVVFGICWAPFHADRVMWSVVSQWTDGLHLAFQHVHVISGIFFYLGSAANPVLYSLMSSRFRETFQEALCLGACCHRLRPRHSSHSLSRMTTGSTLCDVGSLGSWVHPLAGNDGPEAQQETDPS
UniProt Q9Y6M4, sequence (whole entry, looked up): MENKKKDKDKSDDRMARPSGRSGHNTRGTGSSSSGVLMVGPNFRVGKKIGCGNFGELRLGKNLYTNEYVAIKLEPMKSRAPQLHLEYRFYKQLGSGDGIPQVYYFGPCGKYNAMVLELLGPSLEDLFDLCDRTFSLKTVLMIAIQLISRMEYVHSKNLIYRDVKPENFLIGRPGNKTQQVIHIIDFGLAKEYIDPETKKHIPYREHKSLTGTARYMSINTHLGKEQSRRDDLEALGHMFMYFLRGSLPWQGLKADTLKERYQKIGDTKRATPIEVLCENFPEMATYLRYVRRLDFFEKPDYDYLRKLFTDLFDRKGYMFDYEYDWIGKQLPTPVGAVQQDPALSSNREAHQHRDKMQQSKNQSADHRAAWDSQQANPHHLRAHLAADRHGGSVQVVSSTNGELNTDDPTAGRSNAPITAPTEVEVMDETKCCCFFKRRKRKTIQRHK
UniProt Q8TD08, sequence (whole entry, looked up): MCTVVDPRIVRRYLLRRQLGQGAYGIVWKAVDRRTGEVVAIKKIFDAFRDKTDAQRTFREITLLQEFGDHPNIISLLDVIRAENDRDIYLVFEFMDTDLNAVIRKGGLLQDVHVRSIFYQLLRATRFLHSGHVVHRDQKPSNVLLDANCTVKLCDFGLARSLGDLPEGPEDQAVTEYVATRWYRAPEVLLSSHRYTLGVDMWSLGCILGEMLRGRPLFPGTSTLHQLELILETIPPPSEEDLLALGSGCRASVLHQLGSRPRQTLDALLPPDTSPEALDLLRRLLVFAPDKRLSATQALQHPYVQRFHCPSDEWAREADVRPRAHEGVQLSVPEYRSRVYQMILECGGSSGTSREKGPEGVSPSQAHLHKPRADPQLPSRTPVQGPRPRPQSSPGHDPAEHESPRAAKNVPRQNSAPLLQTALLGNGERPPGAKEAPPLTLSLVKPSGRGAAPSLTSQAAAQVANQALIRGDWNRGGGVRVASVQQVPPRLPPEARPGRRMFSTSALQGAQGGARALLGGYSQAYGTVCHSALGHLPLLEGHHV
UniProt P49674, sequence (whole entry, looked up): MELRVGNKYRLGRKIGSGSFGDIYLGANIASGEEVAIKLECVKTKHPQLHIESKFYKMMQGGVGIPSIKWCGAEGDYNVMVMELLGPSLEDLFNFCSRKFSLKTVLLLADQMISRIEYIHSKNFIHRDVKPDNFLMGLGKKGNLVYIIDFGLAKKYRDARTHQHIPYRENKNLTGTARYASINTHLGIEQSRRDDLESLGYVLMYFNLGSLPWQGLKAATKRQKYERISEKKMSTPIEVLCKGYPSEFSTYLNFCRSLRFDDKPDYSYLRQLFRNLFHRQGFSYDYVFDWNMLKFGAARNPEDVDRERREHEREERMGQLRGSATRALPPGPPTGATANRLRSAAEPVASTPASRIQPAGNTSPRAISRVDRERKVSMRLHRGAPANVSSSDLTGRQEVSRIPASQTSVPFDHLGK
UniProt Q8WZ82, sequence (whole entry, looked up): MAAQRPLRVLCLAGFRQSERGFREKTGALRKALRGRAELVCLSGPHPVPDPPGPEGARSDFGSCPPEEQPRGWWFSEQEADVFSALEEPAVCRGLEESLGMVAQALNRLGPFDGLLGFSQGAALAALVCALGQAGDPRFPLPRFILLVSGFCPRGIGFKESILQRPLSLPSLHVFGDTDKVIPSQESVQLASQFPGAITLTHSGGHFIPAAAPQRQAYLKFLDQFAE
UniProt P00942, sequence (whole entry, unmodified, looked up): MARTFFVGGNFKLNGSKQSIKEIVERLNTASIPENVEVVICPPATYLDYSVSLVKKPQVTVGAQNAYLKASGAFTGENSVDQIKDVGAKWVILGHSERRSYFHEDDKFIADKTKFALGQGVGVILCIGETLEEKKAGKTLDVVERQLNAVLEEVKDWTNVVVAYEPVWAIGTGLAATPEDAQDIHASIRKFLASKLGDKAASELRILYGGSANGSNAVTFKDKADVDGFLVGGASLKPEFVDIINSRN

O=C(Nc1cccnn1)N1CCC(=Cc2cccc(Oc3ccc(C(F)(F)F)cn3)c2)CC1  probe labelling (Ahsg; competitive ABPP with azido-FP probe; rat brain soluble fraction; 0.1 µM, unit not given; baseline: DMSO): -1.1
Cc1ccc([C@H]2C[C@@H]2COc2cc(NCc3nnc(C)s3)nc(C)n2)nc1  selectivity ratio (Dual 3',5'-cyclic-AMP and -GMP phosphodiesterase 11A (PDE11A, Homo sapiens, UniProt Q9HCR9); enzyme activity, inhibitor, IMAP fluorescence polarization; isoform PDE11A4; baseline: Ki target over Ki PDE10A2): > 3.28e+06 fold
COc1cccc(OC)c1C(=O)N[C@@H]1C(=O)N2[C@@H]1SC(C)(C)[C@@H]2C(=O)O  kinact/KI (Penicillin-binding protein 2a (pbp2a, Streptococcus pneumoniae, UniProt Q8DNB6); inhibitor): 160 ± 21 M⁻¹ s⁻¹
O=C(Nc1nncs1)C(F)(F)Br  association constant (Mitogen-activated protein kinase 8 (MAPK8, Homo sapiens, UniProt P45983); binding, isothermal titration calorimetry): 5800 M⁻¹ and 4910 M⁻¹ and 4920 M⁻¹
COc1cc(Nc2ncc(F)c(Nc3ccc4c(n3)NC(=O)C(C)(C)O4)n2)cc(OC)c1OC  inhibition (Mitogen-activated protein kinase 15 (MAPK15, Homo sapiens, UniProt Q8TD08); binding, KINOMEscan; 10 µM, ERK8 kinase): 89%
CCOC(=O)COc1ccc2c(=O)c3ccccc3oc2c1  reaction velocity (Acetylcholinesterase (ache, Electrophorus electricus, UniProt O42275); enzyme activity; 1.68 µM, with: substrate 0.86 mM; higher = faster reaction): 0.001 a.u.
COc1ccc(N2C(=O)N(c3c(C)cccc3Cl)Cc3cnc(Nc4ccc(C5CCN(C)CC5)cc4OC)nc32)nc1  inhibition (Tyrosine-protein kinase ABL2 (ABL2, Homo sapiens, UniProt P42684); kinase activity, inhibitor; 0.5 µM, ARG): 96%
CC(C)NC[C@H](O)c1ccc(O)c(O)c1  enantioselectivity (OCT1 human; binding, frontal displacement chromatography; unit not given; baseline: higher Ki over lower Ki): 1.5
CN(C(=O)n1cnc(-c2ccc[n+]([O-])c2)c1)C1CCCCC1  fold change (Monoacylglycerol lipase ABHD6 (Abhd6, Rattus norvegicus, UniProt Q5XI64); enzyme activity, ABPP; rat, brain; oral, 10 mg/kg/day, 7 days; baseline: vehicle): -5.2
Nc1ncnc2c1ncn2[C@@H]1O[C@H](COP(=O)(O)OP(=O)(O)O)[C@@H](O)[C@H]1O  ΔH (Cell cycle histidine kinase CckA, cytoplasmic region (Caulobacter vibrioides, UniProt Q9X688); binding, ITC; with: without c-di-GMP): -1.56 ± 0.102 kcal/mol
C[C@H]1CN(c2n[nH]c3nc(N[C@H]4CC[C@H](NS(=O)(=O)CCC(F)(F)F)CC4)ncc23)CCO1  relative abundance (Kinase suppressor of Ras 1 (KSR1, Homo sapiens, UniProt Q8IVT5); inhibitor, Kinobeads competition profiling; 0.8 µM; baseline: vehicle): 1.3
O=C(c1ccc(Cl)cc1)N1CCN2C(=O)N(OC(=O)N3CCOc4ccccc43)C(=O)C2C1 (centres unmarked)  median ratio (OVCA2 (Homo sapiens, UniProt Q8WZ82); enzyme activity, inhibitor, MS-based ABPP; SW-620 in situ; 10 µM, 2 h, 37 °C; baseline: compound over DMSO, lower = stronger inhibition): 1.08
CCCCCCCCCC(=O)CC(=O)Nc1ccccc1  melting temperature (qscR; ligand, differential scanning fluorimetry; ligand complex): 34.5 °C
O=C(Nc1cnccc1Cl)N1CCN(Cc2ccc3c(c2)OC(F)(F)O3)CC1  inhibition (CX3C chemokine receptor 1 (CX3CR1, Homo sapiens, UniProt P49238); radioligand binding, inhibitor; concentration not given): 3% and -1%
C/C1=C2/[N-]C([C@H](CC(N)=O)[C@@]2(C)CCC(=O)NC[C@@H](C)OP(=O)([O-])O[C@H]2[C@@H](O)[C@@H](n3cnc4cc(C)c(C)cc43)O[C@@H]2CO)[C@]2(C)N=C(/C(C)=C3N=C(/C=C4N=C1[C@@H](CCC(N)=O)C\4(C)C)[C@@H](CCC(N)=O)[C@]\3(C)CC(N)=O)[C@@H](CCC(N)=O)[C@]2(C)CC(N)=O.[CH2-][C@H]1O[C@@H](n2cnc3c(N)ncnc32)[C@@H](O)[C@@H]1O.[Co+3]  specific activity (MMUT (Homo sapiens, UniProt P22033); cofactor): 67.1 ± 4.5 µmol/min/mg
CC[C@@H](C)[C@@H](NC(=O)[C@@H](Cc1ccc(O)cc1)NC(=O)[C@H]1CCCN1C(=O)[C@@H](CCCNC(=N)N)NC(=O)[C@H](N)Cc1c[nH]cn1)C(=O)N[C@H](C)C(=O)N[C@H](Cc1c[nH]cn1)C(=O)N[C@H](CCCNC(=N)N)C(=O)N[C@H](CCCCNC(=O)c1cccc(S(=O)(=O)F)c1)C(=O)N[C@H](Cc1ccc(O)cc1)C(=O)N[C@H](CO)C(=O)N[C@H](Cc1ccccc1)C(N)=O  surface TFRC expression (Transferrin receptor protein 1 (Tfrc, Mus musculus, UniProt Q62351); flow cytometry; B16; 6 h, unit not given; baseline: 0 h): 0.57
CCCCCCCCCC(=O)NC1CCCC1  K0.5 (qscR; ligand binding, FRET displacement; intact cells; apparent affinity): 462 nM
Nc1ncnc2c1ncn2[C@@H]1O[C@H](COP(=O)(O)O)[C@@H](OP(=O)(O)O)[C@H]1O  ligand concentration at rate minimum (Thermonuclease (nuc, Staphylococcus aureus, UniProt P00644); folding kinetics; pH 7.0, 22 °C, with: 2.7 M urea): ~20 µM
CC(C)[C@@H](O)CC[C@@H](C)[C@H]1CC[C@H]2[C@@H]3CC=C4C[C@@H](O)CC[C@]4(C)[C@H]3CC[C@]12C  current response (Glutamate NMDA receptor; GRIN1/GRIN2B (GRIN1/GRIN2B, Homo sapiens, UniProt Q05586+Q13224, E657A); positive allosteric modulator, two-electrode voltage clamp; Xenopus oocytes expressing GluN2B-E657A; 10 µM, 0.02% cremophor, with: 100 µM glutamate and glycine; baseline: without compound): 227 ± 18%
CN1CCN(c2cc(-c3ccncc3)c(-c3ccc4ccccc4c3)nn2)CC1  activation (Neuromedin-U receptor 1 (NMUR1, Homo sapiens, UniProt Q9HB89); agonist, FLIPR; 12.5 µM): 1%
Cc1nn(C)cc1-c1nc2c(N3CCN(Cc4ccc(Cl)cc4)CC3)c(Cl)cnc2[nH]1  remaining binding (Serine/threonine-protein kinase tousled-like 1 (TLK1, Homo sapiens, UniProt Q9UKI8); KINOMEscan; 1 µM; baseline: DMSO control): 66%
CC[C@H](CO)Nc1nc(NCc2ccc(-c3ccccn3)cc2)c2ncn(C(C)C)c2n1  binding score (Casein kinase I isoform epsilon (CSNK1E, Homo sapiens, UniProt P49674); KINOMEscan competition binding; 10 µM, primary screen; direction not given): 0.35
COC(=O)[C@@]1(O)C[C@H]2O[C@]1(C)n1c3ccccc3c3c4c(c5c6ccccc6n2c5c31)C(=O)NC4  kinase activity (Mitogen-activated protein kinase 3 (MAPK3, Homo sapiens, UniProt P27361); ADP-Glo; 10.5 nM, with: MBP substrate): 56.5% and 70.5% and 79.6%
CC(=O)C1C(=O)c2ccccc2C1=O  IC50 (Oxysterols receptor LXR-alpha (NR1H3, Homo sapiens, UniProt Q13133); coactivator recruitment): inactive
CN(C(=O)n1cnc(-c2ccc[n+]([O-])c2)c1)C1CCCCC1  probe labelling (Ahsg; competitive ABPP with azido-FP probe; rat brain soluble fraction; 100 µM, unit not given; baseline: DMSO): -1.1
COc1cc(N)c(Cl)cc1C(=O)NC1CN2CCC1CC2 (centres unmarked)  log2 fold change (G-protein coupled receptor 171 (GPR171, Homo sapiens, UniProt O14626); β-arrestin recruitment, TANGO luminescence, item: GPR171; concentration not given; baseline: basal luminescence): 0.476
O=C(O)Cc1c[nH]cn1  normalised MST signal (Sodium- and chloride-dependent taurine transporter (SLC6A6, Homo sapiens, UniProt P31641, Y138A); binding, microscale thermophoresis; 244 nM, room temperature, with: 50 nM labelled protein; higher = more binding): -0.0795
[2H]c1c([2H])c([C@]2([2H])CCCN2C(=O)C(C)(C)Oc2ccc3cn[nH]c3c2)c([2H])c([2H])c1C([2H])([2H])[2H]  remaining binding (Casein kinase I isoform gamma-3 (CSNK1G3, Homo sapiens, UniProt Q9Y6M4); KINOMEscan; 1 µM; baseline: DMSO control): 64%
Nc1nc2c(ncn2[C@@H]2O[C@@H]3COP(O)(=S)O[C@H]3[C@H]2O)c(=O)[nH]1 (single isomer, unassigned)  relative binding affinity (anti-cGMP antibody; antibody binding, competitive cGMP EIA; concentration not given, acetylated samples; baseline: EC50 cGMP over EC50 cpd, higher = stronger binding): 0.0027
CC1(C)S[C@@H]2[C@H](NC(=O)Cc3ccccc3)C(=O)N2[C@H]1C(=O)O  kinact/KI (Penicillin-binding protein 2X (Streptococcus pneumoniae R6, UniProt P59676); inhibitor; Streptococcus pneumoniae): 200000 ± 7400 M⁻¹ s⁻¹
O=C(O)COP(=O)(O)O  Ki ratio (TPI1 (Saccharomyces cerevisiae, UniProt P00942, Y208A); enzyme activity, competitive inhibitor, GPDH/NADH-coupled; pH 8.9, 25 °C, ionic strength 0.1 NaCl, with: glyceraldehyde 3-phosphate substrate; baseline: mutant over wild type): 20
C[n+]1cn([C@@H]2O[C@H](COP(=O)([O-])O)[C@@H](O)[C@H]2O)c2nc(N)[nH]c(=O)c21  ΔH (m7GpppX diphosphatase (DCS1, Saccharomyces cerevisiae, UniProt Q06151, H268N); binding, ITC): -8.37 kcal/mol
CC12CCC(CC1)C(C)(C)O2  Ks change (1,8-cineole 2-endo-monooxygenase (cinA, Citrobacter braakii, UniProt Q8VQF6, Y81F); substrate binding, spin shift difference spectroscopy; concentration not given, Y81F mutant; baseline: wild type, higher = weaker binding): ~20 fold
COc1ccc(Nc2nn3c(-c4ccccc4)ccnc3c2C(=O)Nc2ccccc2)cc1  decrease in band quantity (α-glucosidase; SDS-PAGE, item: 1 kDa band; 1 mg/mL): 40.5%
CC[C@H](C)[C@@H]1NC(=O)[C@H](Cc2c[nH]c3ccccc23)NC(=O)[C@H](Cc2ccc(O)cc2)NC(=O)CSC[C@@H](C(N)=O)NC(=O)[C@H]([C@@H](C)O)NC(=O)[C@H](CO)NC(=O)[C@H](C(C)C)NC(=O)[C@H](Cc2ccc(O)cc2)NC(=O)[C@H](CCCNC(=N)N)NC(=O)[C@H](Cc2ccc(O)cc2)NC(=O)[C@H]([C@@H](C)O)NC(=O)[C@H]([C@@H](C)O)NC(=O)[C@H](Cc2c[nH]c3ccccc23)NC(=O)[C@H](CO)NC(=O)[C@H](CC(N)=O)NC(=O)[C@H](CO)NC1=O  ΔH (Vacuolar protein sorting-associated protein 26A/Vacuolar protein sorting-associated protein 35, Vps35 residues 1–390 (Homo sapiens, UniProt O75436+Q96QK1); ITC; 25 °C): -6.8 ± 1.2 kcal/mol

A few entries again:
O=C(c1ccc(Cl)cc1)N1CCN2C(=O)N(OC(=O)N3CCOc4ccccc43)C(=O)C2C1 (centres unmarked)  median ratio (OVCA2 (Homo sapiens, UniProt Q8WZ82); enzyme activity, inhibitor, MS-based ABPP; SW-620 in situ; 10 µM, 2 h, 37 °C; baseline: compound over DMSO, lower = stronger inhibition): 1.08
CN(C(=O)n1cnc(-c2ccc[n+]([O-])c2)c1)C1CCCCC1  fold change (Monoacylglycerol lipase ABHD6 (Abhd6, Rattus norvegicus, UniProt Q5XI64); enzyme activity, ABPP; rat, brain; oral, 10 mg/kg/day, 7 days; baseline: vehicle): -5.2
Nc1ncnc2c1ncn2[C@@H]1O[C@H](COP(=O)(O)O)[C@@H](OP(=O)(O)O)[C@H]1O  ligand concentration at rate minimum (Thermonuclease (nuc, Staphylococcus aureus, UniProt P00644); folding kinetics; pH 7.0, 22 °C, with: 2.7 M urea): ~20 µM
CN(C(=O)n1cnc(-c2ccc[n+]([O-])c2)c1)C1CCCCC1  probe labelling (Ahsg; competitive ABPP with azido-FP probe; rat brain soluble fraction; 100 µM, unit not given; baseline: DMSO): -1.1
